Assay results pooled from the literature.
A part holds a random share of what one study measured. Substitutions count along the parent as printed.

Series 1
Target: Histone acetyltransferase KAT6A, winged helix 2, GST fusion (KAT6A, Homo sapiens, UniProt Q92794, residues 85-181)
Method: protein binding microarray
Form: double-stranded DNA, one strand shown
Medium: in vitro
Tested at: not given
Setting: 8-mer, flanks averaged, mean of 2 arrays, mostly near background
Baseline: not given
Direction: higher = stronger binding
Residues (chain): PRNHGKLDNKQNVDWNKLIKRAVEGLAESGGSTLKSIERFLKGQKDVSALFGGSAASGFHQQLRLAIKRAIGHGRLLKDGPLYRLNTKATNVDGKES
With `ACGAGAAA` the E-score was 0.22.
With `ACAGACTC` the E-score was -0.155.
`CATGCGTA` gave an E-score of -0.0575.
`CTGAAGTA` has an E-score of 0.0614.
With `AGCCCTAC` the E-score was 0.000915.
For `AACGGCTG`, the E-score was -0.0212.
`ATCACGTA` has an E-score of -0.215.
`ACGCACTC` gave an E-score of 0.00912.
For `AGTCGGTG`, the E-score was -0.0284.
For `TCCTTGCA`, the E-score was 0.00242.
`GGTTAGAC` gave an E-score of 0.015.
For `GGTCTTAC`, the E-score was -0.0589.
For `CCCCTGTC`, the E-score was -0.183.
`CCTCGCAG` gave an E-score of 0.0333.
`AACGTTCA` has an E-score of -0.384.
`GTTTCGGA` has an E-score of 0.0828.
For `CCGCTCTA`, the E-score was 0.029.
`CACGTCGC` gave an E-score of -0.0782.
With `CTTCAAGC` the E-score was -0.0905.
For `CCAACTTA`, the E-score was -0.0792.
`ACTCCTCA` has an E-score of -0.205.
With `GCAGGAAC` the E-score was -0.055.
For `ACTCTAAT`, the E-score was -0.069.
With `CATTCAAG` the E-score was -0.137.
`GCGCGAGA` has an E-score of 0.0714.

Series 2
Target: Sal-like protein 4, full length isoform A (SALL4, Homo sapiens, UniProt Q9UJQ4, residues 1-1053)
Chain of UniProt Q9UJQ4 (whole entry, looked up): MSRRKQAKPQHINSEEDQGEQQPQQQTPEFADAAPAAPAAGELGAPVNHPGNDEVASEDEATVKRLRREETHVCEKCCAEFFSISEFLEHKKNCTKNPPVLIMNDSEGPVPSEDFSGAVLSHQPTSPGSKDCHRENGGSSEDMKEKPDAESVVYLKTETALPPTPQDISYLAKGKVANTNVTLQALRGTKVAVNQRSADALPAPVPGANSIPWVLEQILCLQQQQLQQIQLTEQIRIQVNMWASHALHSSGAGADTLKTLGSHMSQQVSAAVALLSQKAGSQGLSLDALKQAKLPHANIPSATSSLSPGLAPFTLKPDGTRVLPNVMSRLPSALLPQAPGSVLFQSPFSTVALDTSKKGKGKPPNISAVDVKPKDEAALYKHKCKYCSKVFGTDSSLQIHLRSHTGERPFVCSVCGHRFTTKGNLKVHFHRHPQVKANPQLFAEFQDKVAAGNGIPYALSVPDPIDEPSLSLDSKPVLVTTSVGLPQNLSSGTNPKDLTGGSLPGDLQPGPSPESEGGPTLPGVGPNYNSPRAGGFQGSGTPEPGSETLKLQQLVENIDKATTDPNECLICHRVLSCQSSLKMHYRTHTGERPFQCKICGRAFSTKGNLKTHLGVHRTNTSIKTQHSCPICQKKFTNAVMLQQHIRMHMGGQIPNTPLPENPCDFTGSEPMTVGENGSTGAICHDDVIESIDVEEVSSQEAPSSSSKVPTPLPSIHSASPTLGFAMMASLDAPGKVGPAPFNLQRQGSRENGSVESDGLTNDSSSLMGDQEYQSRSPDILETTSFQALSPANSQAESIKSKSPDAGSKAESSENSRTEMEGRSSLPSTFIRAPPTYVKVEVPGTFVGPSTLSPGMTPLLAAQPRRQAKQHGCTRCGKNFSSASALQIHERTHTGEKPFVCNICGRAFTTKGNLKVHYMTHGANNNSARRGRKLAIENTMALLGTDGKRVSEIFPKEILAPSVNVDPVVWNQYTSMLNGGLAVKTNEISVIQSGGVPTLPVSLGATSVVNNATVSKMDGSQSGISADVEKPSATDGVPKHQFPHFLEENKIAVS
Method: universal PBM
Form: double-stranded DNA, one strand shown
Medium: in vitro
Tested at: 600 nM
Setting: 8-mer, flanks averaged, mean of replicates
Direction: higher = stronger binding
`CGGCGTAG` has an E-score of -0.232.
`AGATCCAA` has an E-score of -0.0705.
`AGCCCCTG` gave an E-score of -0.376.
With `GCCCCCTA` the E-score was -0.17.
`CCGCTAAA` has an E-score of -0.0521.
`CGCAGTTC` gave an E-score of -0.21.
The E-score of `ACTCGAGC` is reported as -0.224.
With `AGCCAGAG` the E-score was -0.214.
With `GGCAGGAA` the E-score was -0.09.
The E-score of `AGAGTATC` is reported as 0.148.
`AACGGGTG` gave an E-score of -0.149.
`CAGGTGTA` has an E-score of -0.046.
With `AACTGTCC` the E-score was -0.173.
For `CCTATGAG`, the E-score was 0.0365.
With `ACGCTGTC` the E-score was -0.268.
The E-score of `AGGGAAGG` is reported as -0.0713.
For `CAAGTAAA`, the E-score was 0.2.
`CAAACGCA` has an E-score of 0.0181.
For `CTGTTATC`, the E-score was 0.175.
`CCGTTCCC` gave an E-score of -0.275.
With `CTGCGATA` the E-score was -0.0401.

Series 3
Target: ABI1, truncated, D143A, DHFR fusion (Arabidopsis thaliana)
Method: DHFR PCA, deep sequencing
Medium: yeast
Setting: methotrexate growth selection, single substitutions
Added: (+)-ABA 200 µM
Baseline: wild-type fitted maximum
Direction: higher = stronger binding
Starting sequence: PYL1, truncated, DHFR fusion (Arabidopsis thaliana); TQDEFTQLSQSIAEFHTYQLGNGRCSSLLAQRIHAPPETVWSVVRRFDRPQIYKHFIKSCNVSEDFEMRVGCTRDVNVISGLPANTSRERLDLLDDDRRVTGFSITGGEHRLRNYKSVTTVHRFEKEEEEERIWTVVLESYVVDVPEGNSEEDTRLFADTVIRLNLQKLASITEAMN; partner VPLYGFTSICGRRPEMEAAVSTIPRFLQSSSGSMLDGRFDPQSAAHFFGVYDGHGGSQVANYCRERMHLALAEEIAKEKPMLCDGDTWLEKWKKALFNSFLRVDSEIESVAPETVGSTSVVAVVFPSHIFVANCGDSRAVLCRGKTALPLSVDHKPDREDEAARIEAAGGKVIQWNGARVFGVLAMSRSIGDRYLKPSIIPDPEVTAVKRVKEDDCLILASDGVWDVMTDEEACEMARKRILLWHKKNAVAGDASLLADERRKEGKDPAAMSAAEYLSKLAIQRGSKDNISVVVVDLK
`D159Y` — result for “relative binding score”: 19.4%.
`R99I`: “relative binding score” 18.8%.
`T154V` — result for “relative binding score”: 97.1%.
Under “relative binding score”, `E125S` is recorded as 101%.
`L94H`: “relative binding score” 105%.
`E147M`: “relative binding score” 89.9%.
Under “relative binding score”, `E89S` is recorded as 3.42%.
For `V145A`, “relative binding score” read 70.8%.
`L138H` — result for “relative binding score”: 47.8%.
`D97F` — result for “relative binding score”: 93%.
`A158H` — result for “relative binding score”: 45.6%.
Under “relative binding score”, `S27Y` is recorded as 50.4%.
For `F66R`, “relative binding score” read 89.5%.
`T6N`: “relative binding score” 99.4%.
`V43S`: “relative binding score” 47.9%.
`S59R`: “relative binding score” 89.5%.
Under “relative binding score”, `V136C` is recorded as 91.1%.

Series 4
Target: RING finger protein unkempt homolog, zinc fingers 1-6, GST-SBP tag (UNK, Homo sapiens, UniProt Q9C0B0, residues 30-357)
Method: RNA Bind-n-Seq
Form: RNA
Medium: in vitro
Tested at: not given
Setting: RNA with constant flanks, ends assumed
Baseline: input RNA pool
Direction: higher = stronger binding
Target sequence (chain): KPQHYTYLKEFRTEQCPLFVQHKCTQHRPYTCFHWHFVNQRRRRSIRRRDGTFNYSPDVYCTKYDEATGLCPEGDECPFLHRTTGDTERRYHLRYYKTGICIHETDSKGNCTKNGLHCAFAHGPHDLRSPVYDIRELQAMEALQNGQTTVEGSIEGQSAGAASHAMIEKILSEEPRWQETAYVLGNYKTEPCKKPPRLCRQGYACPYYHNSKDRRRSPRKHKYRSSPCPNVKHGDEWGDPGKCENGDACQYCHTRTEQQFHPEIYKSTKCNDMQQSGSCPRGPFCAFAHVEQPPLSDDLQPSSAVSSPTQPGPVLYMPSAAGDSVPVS
The bound/input enrichment of `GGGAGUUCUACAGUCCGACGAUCCGUGGAAAUAUUGUCUAUAUUCACAUAAGAGAUAAGACAUGGGAUGUUCAUGAGUAUUUGAACCGUCUUUUCGAAGAAUUAAAAUCUUGGAGAGAUGUAUACUGGCGAUUGUGGGGAACACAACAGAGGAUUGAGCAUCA` is reported as 0.253 ratio.
`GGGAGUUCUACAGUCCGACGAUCGUGGUGUGAACACGGCUCACUGCAGCCUCAACCUCCUGGACUCAGAGAUGUCGGCUUAUUUACCGGAAUUGCUUGAAGCCAGAGUCAUGGUGGAUGUCGGAAAGUGGCCCAUCUUCACUCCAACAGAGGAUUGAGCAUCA` has a bound/input enrichment of 0.0705 ratio.
With `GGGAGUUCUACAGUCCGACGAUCAAGAACUUCAAGGGUACUAUUGAAGAACUGGCUCCAAAUCAAUAUGUGAUUAGUGGUGAAGCCGCUAUUCUUAAUUCUACAACCAUUGAAAUCUCAGAGCUUCCCGUCAGAACAUGGACCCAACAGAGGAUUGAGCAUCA` the bound/input enrichment was 0.345 ratio.
`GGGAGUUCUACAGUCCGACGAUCAGAUAUUUUGAAGAAAAAAAAAAUUCAAACAGAUUUAUCAAGGGUAACCAGCUUGGAGUCCCGCAAUUUUGCCAAUGUGCUUACCAAUUUGGGGGCUUGUUUUUCUUCCCUUCCUUACAUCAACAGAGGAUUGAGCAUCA` gave a bound/input enrichment of 0.314 ratio.
`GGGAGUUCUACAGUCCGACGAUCUCUGUUCGGAACCCCAGAGCACGAGUAGUAGUCUUAAGAGUAAAGCUUUCCAGUUUGAAUUCCGAUGAUCACGCAAAGAAGAAAUUAAUUAAACUUGUAGGAGAGCGAUACUGCAAGACCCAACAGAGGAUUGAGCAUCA` has a bound/input enrichment of 0.38 ratio.
The bound/input enrichment of `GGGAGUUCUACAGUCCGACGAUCGGGGCAUUAAUUGCUUCUCUUAUCAACUGCUACAUCAGAGAUAAUGCCGCUGUUGAUGGCAUCCGUUUACAUUUACAGGAUAUCUGCCCACUUCUAUAUAGCACUGAUGAUGCAAUUUGUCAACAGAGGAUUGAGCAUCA` is reported as 0.498 ratio.
`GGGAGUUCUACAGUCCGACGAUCUGCAUGCUGCUGUUUGUGUUUGGCUUUGUUGGCGGGGCGGUGGUCAUUAAUUCUGCGAUCUCCGUAUCUCUCUCUGUUUUGCUGCUUGUGCACUUUUCUAUUUCUACCGGGGUGCCAGCGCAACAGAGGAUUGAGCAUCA` gave a bound/input enrichment of 0.279 ratio.
`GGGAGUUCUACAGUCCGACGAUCUUGGACAUCCUCCUUCAGGAUACCACCAAAGAACCUUUGGAUCUGCCUGACAACCCCCGCAACCGGCAUUUUACCAACAGCGUGCCUAACCCUAGGAUCUCAGAUGCUGAACUUGAAGCUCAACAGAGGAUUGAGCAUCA` has a bound/input enrichment of 0.144 ratio.
`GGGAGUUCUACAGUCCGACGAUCUCCACAACAGGUUCCUGACGGAGACUUCGCCCUUCAUGUGGUCCAACCUGGGCAUUGGCCCCGCUAUCUCCCUGUCUGUGGUUGGGGCAGCCUGGGGCAUCUAUAUUACCGGCUCCUCCACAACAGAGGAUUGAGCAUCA` gave a bound/input enrichment of 0.0909 ratio.
For `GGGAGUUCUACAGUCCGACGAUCUUCAUCUUGAGGUGGCCAAUAUGGGGAUGUGGAAUUUUUAUACAAGUUAUAAGUGUUUGGCACCGUACUUUUGGUACAUUGUGGCUUCAAAAGGGCCAGUGUAAAACUGCUUCCAUGUCUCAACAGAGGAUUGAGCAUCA`, the bound/input enrichment was 0.121 ratio.
For `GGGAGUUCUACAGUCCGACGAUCACCCCCUUCGCCGGUACCGGGCUCUUCUUCGGAAAGAUGUCGGACACCGCAGUGGCUGACACCCGGCGCCUUAACUCGAAGCCCCAAGACCUGACCGACGCUUACGGGCCGCCCAGUAACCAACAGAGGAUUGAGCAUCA`, the bound/input enrichment was 0.118 ratio.

Series 5
Target: CCNB2, cyclin fold, Cln2 fusion (human)
Method: yeast growth competition, sequencing
Medium: yeast
Setting: weak parent motif
Baseline: not given
Direction: higher = stronger binding
Starting sequence: ORC1 docking peptide (human); PRARKRLELGNLG; partner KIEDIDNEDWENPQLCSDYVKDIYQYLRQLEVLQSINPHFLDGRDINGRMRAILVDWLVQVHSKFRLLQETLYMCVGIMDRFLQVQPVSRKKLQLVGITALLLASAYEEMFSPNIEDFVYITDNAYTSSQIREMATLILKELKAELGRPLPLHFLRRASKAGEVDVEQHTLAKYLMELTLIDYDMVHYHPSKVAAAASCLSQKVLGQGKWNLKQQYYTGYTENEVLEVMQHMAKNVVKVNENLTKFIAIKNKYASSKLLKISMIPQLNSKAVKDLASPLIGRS
`P1Y`: “normalised enrichment score” 0.267.
`R2V`: “normalised enrichment score” 0.298.
`E8M`: “normalised enrichment score” 0.583.
`N11L` — result for “normalised enrichment score”: 0.919.
For `G13R`, “normalised enrichment score” read 0.548.
For `E8R`, “normalised enrichment score” read 0.301.
`L9Q` — result for “normalised enrichment score”: 0.732.
Under “normalised enrichment score”, `N11S` is recorded as 0.669.
`A3L`: “normalised enrichment score” 0.12.
Under “normalised enrichment score”, `K5R L9F` is recorded as 0.554.
For `R6V`, “normalised enrichment score” read 0.12.
For `L12K`, “normalised enrichment score” read 0.459.
`P1R`: “normalised enrichment score” 0.763.
Under “normalised enrichment score”, `K5T` is recorded as 0.215.
`R6Y` — result for “normalised enrichment score”: 0.745.
`E8W` — result for “normalised enrichment score”: 0.822.
For `R4L`, “normalised enrichment score” read 0.198.
For `G10S`, “normalised enrichment score” read 0.301.
Under “normalised enrichment score”, `G10A` is recorded as 0.357.
For `L12D`, “normalised enrichment score” read 0.252.
`L7E`: “normalised enrichment score” 0.361.
Under “normalised enrichment score”, `E8V` is recorded as 0.692.
`K5F` — result for “normalised enrichment score”: 0.148.
`L12V` — result for “normalised enrichment score”: 0.299.
`E8H` — result for “normalised enrichment score”: 0.148.

Single results of other studies
For `PhoQ, residues 284 288 289 292 302 303 SSCLAV`, the fold induction was 13.1 (PhoP, residues 12 14 15 18 19 IQFRS (Escherichia coli, UniProt P23836); Sort-seq, measured: YFP reporter; E. coli; PhoQ-PhoP variant library, added: 10 µM Mg2+; baseline: high Mg2+ state, higher = stronger signaling).

For quick reference, copied from above (series 5):
Under “normalised enrichment score”, `K5R L9F` is recorded as 0.554.
For `R6V`, “normalised enrichment score” read 0.12.
For `L12K`, “normalised enrichment score” read 0.459.
`P1R`: “normalised enrichment score” 0.763.
Under “normalised enrichment score”, `K5T` is recorded as 0.215.
`R6Y` — result for “normalised enrichment score”: 0.745.
`E8W` — result for “normalised enrichment score”: 0.822.
For `R4L`, “normalised enrichment score” read 0.198.
For `G10S`, “normalised enrichment score” read 0.301.
Under “normalised enrichment score”, `G10A` is recorded as 0.357.
For `L12D`, “normalised enrichment score” read 0.252.
`L7E`: “normalised enrichment score” 0.361.
Under “normalised enrichment score”, `E8V` is recorded as 0.692.
`K5F` — result for “normalised enrichment score”: 0.148.
